Assay results gathered from unrelated publications.
Each line is one published result; not all experiments were run side by side. ± marks the error that the study gave.
APP: Amyloid-beta precursor protein (APP, Homo sapiens, UniProt P05067)
Chain of UniProt P05067 (whole entry, looked up): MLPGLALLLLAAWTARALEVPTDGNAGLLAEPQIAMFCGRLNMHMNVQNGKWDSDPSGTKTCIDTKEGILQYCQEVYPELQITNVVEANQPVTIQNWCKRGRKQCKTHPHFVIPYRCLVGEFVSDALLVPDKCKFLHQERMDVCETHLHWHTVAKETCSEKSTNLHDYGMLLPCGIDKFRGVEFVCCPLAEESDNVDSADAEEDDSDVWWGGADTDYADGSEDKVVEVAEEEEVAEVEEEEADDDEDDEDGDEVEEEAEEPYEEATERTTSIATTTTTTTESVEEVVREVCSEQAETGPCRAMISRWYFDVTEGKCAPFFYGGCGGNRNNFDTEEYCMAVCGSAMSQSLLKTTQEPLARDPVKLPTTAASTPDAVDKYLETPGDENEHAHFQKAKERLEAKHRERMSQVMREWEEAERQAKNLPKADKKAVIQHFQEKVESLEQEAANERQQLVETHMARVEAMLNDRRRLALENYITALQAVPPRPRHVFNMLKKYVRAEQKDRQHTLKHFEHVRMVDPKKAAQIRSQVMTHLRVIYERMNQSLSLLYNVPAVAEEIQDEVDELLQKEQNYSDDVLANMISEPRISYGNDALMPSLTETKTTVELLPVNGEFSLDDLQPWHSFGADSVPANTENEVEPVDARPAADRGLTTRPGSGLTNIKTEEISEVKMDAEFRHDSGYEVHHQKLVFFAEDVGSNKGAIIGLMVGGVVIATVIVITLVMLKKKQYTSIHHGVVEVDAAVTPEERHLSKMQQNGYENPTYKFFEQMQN

For `CCCCC/C=C\C/C=C\C/C=C\C/C=C\CCCC(=O)O`, ThT fluorescence read “decreased” (APP; amyloid beta aggregation, inhibitor; 100 µM, 3 h, 37 °C; reference: untreated).
`COc1ccc(C=CC(=O)C(CCC(=O)OC(C)(C)C)C(=O)C=Cc2ccc(OC)c(F)c2)cc1F` (stereo not drawn) gave a band density of 313 ± 98% (APP; Aβ aggregation, SDS-PAGE western blot, refers to: Aβ1-42 75-200 kDa band; 30 µM, 24 h, 37 °C, added: Aβ1-42 10 µM; reference: DMSO).
`CC1=C[C@H](O)CC(C)(C)[C@H]1/C=C/C(C)=C/C=C/C(C)=C/C=C/C=C(C)/C=C/C=C(C)/C=C/C1=C(C)C[C@@H](O)CC1(C)C` — result for ThT fluorescence: “decreased” (APP; amyloid beta aggregation, inhibitor; 100 µM, 3 h, 37 °C; reference: untreated).
For `COC(=O)CCC(C(=O)C=Cc1ccc(O)c(F)c1)C(=O)C=Cc1ccc(O)c(F)c1` (stereo not drawn), the band density was 1030 ± 313% (APP; Aβ aggregation, SDS-PAGE western blot, refers to: Aβ1-42 75-200 kDa band; 30 µM, 24 h, 37 °C, added: Aβ1-42 10 µM; reference: DMSO).
`CC[C@H](C)[C@H](NC(=O)[C@@H]1CCCN1C(=O)[C@@H]1CCCN1)C(=O)N[C@@H](C)C(N)=O` has an inhibition of 18.3% (APP; amyloid aggregation, inhibitor, fluorescence; 4 µM, 24 h).
`CC[C@H](C)[C@@H]1NC(=O)[C@H]([C@@H](C)O)NC(=O)[C@H](Cc2ccc(O)cc2)NC(=O)[C@H](CCCNC(=N)N)NC(=O)[C@@H]2CCCN2C(=O)[C@H]2CCCN2C(=O)[C@H]([C@@H](C)O)NC(=O)[C@H](C(C)C)NC(=O)[C@H](C(C)C)NC(=O)[C@H](CCCCN)NC(=O)[C@H](CO)NC(=O)[C@H](CCC(N)=O)NC(=O)[C@H](CO)NC(=O)[C@H](Cc2ccc(O)cc2)NC(=O)[C@H](CO)NC(=O)[C@H](Cc2ccc(O)cc2)NC(=O)[C@@H]2CCCN2C(=O)[C@H](CO)NC(=O)[C@H](CC(C)C)NC(=O)[C@H](CC(C)C)NC(=O)[C@H](C)NC(=O)[C@H](C)NC1=O` — result for “time to first degradation”: ≤ 5 min (Amyloid-beta precursor protein, Aβ40 (APP, Homo sapiens, UniProt P05067); proteolysis by proteinase K, refers to: amyloid beta; 1.4 µM, 24 h preincubation, 37 °C, added: 20 µM amyloid beta, proteinase K 0.5 µg/mL).
For `CC[C@@H](C)[C@@H](NC(=O)[C@@H](N)C(C)C)C(=O)N[C@H](C(=O)N[C@@H](C)C(N)=O)[C@@H](C)CC`, the inhibition was 35.1% (APP; amyloid aggregation, inhibitor, fluorescence; 4 µM, 24 h).
With `COc1ccc(C=CC(=O)C(C)C(=O)C=Cc2ccc(OC)c(OC(F)(F)F)c2)cc1OC(F)(F)F` (stereo not drawn) the band density was 155 ± 12% (APP; Aβ aggregation, SDS-PAGE western blot, refers to: Aβ1-42 75-200 kDa band; 30 µM, 24 h, 37 °C, added: Aβ1-42 10 µM; reference: DMSO).
`O=S1(=O)OC(c2ccc(O)cc2)(c2ccc(O)cc2)c2ccccc21` — result for ThT fluorescence: “decreased” (APP; amyloid beta aggregation, inhibitor; 100 µM, 3 h, 37 °C; reference: untreated).
`CC[C@H](C)[C@H](NC(=O)[C@@H](NC(=O)[C@@H](N)C(C)C)C(C)C)C(=O)N[C@H](C(N)=O)C(C)C` gave an inhibition of 0% (APP; amyloid aggregation, inhibitor, fluorescence; 2 µM, 24 h).
With `O=C(C=Cc1ccc(O)c(OC(F)(F)F)c1)C(CCOCCOCCOCCOC1CCCCO1)C(=O)C=Cc1ccc(O)c(OC(F)(F)F)c1` (stereo not drawn) the band density was 556 ± 58% (APP; Aβ aggregation, SDS-PAGE western blot, refers to: Aβ1-42 75-200 kDa band; 30 µM, 24 h, 37 °C, added: Aβ1-42 10 µM; reference: DMSO).
The Aβ42 degradation of `CC[C@H](C)[C@H](NC(=O)[C@H](CCSC)NC(=O)[C@H](CCCNC(=N)N)NC(=O)[C@H](Cc1ccc(O)cc1)NC(=O)[C@H](C)NC(=O)[C@H](CCC(N)=O)NC(=O)CNC(=O)[C@H](CCCCN)NC(=O)[C@@H](N)CO)C(=O)O` is reported as 12% (Amyloid-beta precursor protein, Aβ42 soluble (APP, Homo sapiens, UniProt P05067); protease, HPLC; 0.2 mM, 7 days, pH 7.4, 37 °C, added: soluble Aβ42 0.05 mM, HSA 0.025%).

Some of these lines once more:
With `COc1ccc(C=CC(=O)C(C)C(=O)C=Cc2ccc(OC)c(OC(F)(F)F)c2)cc1OC(F)(F)F` (stereo not drawn) the band density was 155 ± 12% (APP; Aβ aggregation, SDS-PAGE western blot, refers to: Aβ1-42 75-200 kDa band; 30 µM, 24 h, 37 °C, added: Aβ1-42 10 µM; reference: DMSO).
